Measurements of several laboratories.
Lines come from different studies, so protocols differ. Several values in a cell are separate wells, animals, samples, runs or records. ± gives the spread as reported.
B1: human hnRNP R; sequence looked up; chain ANQVNGNAVQLKEEEEPMDTSSVTHTEHYKTLIEAGLPQKVAERLDEIFQTGLVAYVDLDERAIDALREFNEEGALSVLQQFKESDLSHVQNKSAFLCGVMKTYRQREKQGSKVQESTKGPDEAKIKALLERTGYTLDVTTGQRKYGGPPPDSVYSGVQPGIGTEVFVGKIPRDLYEDELVPLFEKAGPIWDLRLMMDPLSGQNRGYAFITFCGKEAAQEAVKLCDSYEIRPGKHLGVCISVANNRLFVGSIPKNKTKENILEEFSKVTEGLVDVILYHQPDDKKKNRGFCFLEYEDHKSAAQARRRLMSGKVKVWGNVVTVEWADPVEEPDPEVMAKVKVLFVRNLATTVTEEILEKSFSEFGKLERVKKLKDYAFVHFEDRGAAVKAMDEMNGKEIEGEEIEIVLAKPPDKKRKERQAARQASRSTAYEDYYYHPPPRMPPPIRGRGRGGGRGGYGYPPDYYGYEDYYDDYYGYDYHDYRGGYEDPYYGYDDGYAVRGRGGGRGGRGAPPPPRGRGAPPPRGRAGYSQRGAPLGPPRGSRGGRGGPAQQQRGRGSRGSRGNRGGNVGGKRKADGYNQPDSKRRQTNNQQNWGSQPIAQQPLQQGGDYSGNYGYNNDNQEFYQDTYGQQWK
B2: interferon gamma; sequence looked up; chain QDPYVKEAENLKKYFNAGHSDVADNGTLFLGILKNWKEESDRKIMQSQIVSFYFKLFKNFKDDQSIQKSVETIKEDMNVKFFNSNKKKRDDFEKLTNYSVTDLNVQRKAIHELIQVMAELSPAAKTGKRKRSQMLFRG
B3: recombinant human GDNF; sequence looked up; chain SPDKQMAVLPRRERNRQAAAANPENSRGKGRRGQRGKNRGCVLTAIHLNVTDLGLGYETKEELIFRYCSGSCDAAETTYDKILKNLSRNRRLVSDKVGQACCRPIAFDDDLSFLDDNLVYHILRKHSAKRCGCI
B4: palladin, human; sequence looked up; chain MSGTSSHESFYDSLSDMQEESKNTDFFPGLSAFLSQEEINKSLDLARRAIADSETEDFDSEKEISQIFSTSPASLCEHPSHKETKLGEHASRRPQDNRSTPVQPLAEKQTKSISSPVSKRKPAMSPLLTRPSYIRSLRKAEKRGAKTPSTNVKPKTPHQRKGGPQSQLCDKAANLIEELTSIFKAAKPRNRSPNGESSSPDSGYLSPKNQPSALLSASASQSPMEDQGEMEREVKSPGARHCYQDNQDLAVPHNRKSHPQPHSALHFPAAPRFIQKLRSQEVAEGSRVYLECRVTGNPTPRVRWFCEGKELHNTPDIQIHCEGGDLHTLIIAEAFEDDTGRYTCLATNPSGSDTTSAEVFIEGASSTDSDSESLAFKSRAGAMPQAQKKTTSVSLTIGSSSPKTGVTTAVIQPLSVPVQQVHSPTSYLCRPDGTTTAYFPPVFTKELQNTAVAEGQVVVLECRVRGAPPLQVQWFRQGSEIQDSPDFRILQKKPRSTAEPEEICTLVIAETFPEDAGIFTCSARNDYGSATSTAQLVVTSANTENCSYESMGESNNDHFQHFPPPPPILETSSLELASKKPSEIQQVNNPELGLSRAALQMQFNAAERETNGVHPSRGVNGLINGKANSNKSLPTPAVLLSPTKEPPPLLAKPKLDPLKLQQLQNQIRLEQEAGARQPPPAPRSAPPSPPFPPPPAFPELAACTPPASPEPMSALASRSAPAMQSSGSFNYARPKQFIAAQNLGPASGHGTPASSPSSSSLPSPMSPTPRQFGRAPVPPFAQPFGAEPEAPWGSSSPSPPPPPPPVFSPTAAFPVPDVFPLPPPPPPLPSPGQASHCSSPATRFGHSQTPAAFLSALLPSQPPPAAVNALGLPKGVTPAGFPKKASRTARIASDEEIQGTKDAVIQDLERKLRFKEDLLNNGQPRLTYEERMARRLLGADSATVFNIQEPEEETANQEYKVSSCEQRLISEIEYRLERSPVDESGDEVQYGDVPVENGMAPFFEMKLKHYKIFEGMPVTFTCRVAGNPKPKIYWFKDGKQISPKSDHYTIQRDLDGTCSLHTTASTLDDDGNYTIMAANPQGRISCTGRLMVQAVNQRGRSPRSPSGHPHVRRPRSRSRDSGDENEPIQERFFRPHFLQAPGDLTVQEGKLCRMDCKVSGLPTPDLSWQLDGKPVRPDSAHKMLVRENGVHSLIIEPVTSRDAGIYTCIATNRAGQNSFSLELVVAAKEAHKPPVFIEKLQNTGVADGYPVRLECRVLGVPPPQIFWKKENESLTHSTDRVSMHQDNHGYICLLIQGATKEDAGWYTVSAKNEAGIVSCTARLDVYTQWHQQSQSTKPKKVRPSASRYAALSDQGLDIKAAFQPEANPSHLTLNTALVESEDL
Sequence of UniProt Q64663 (whole entry, unmodified, looked up): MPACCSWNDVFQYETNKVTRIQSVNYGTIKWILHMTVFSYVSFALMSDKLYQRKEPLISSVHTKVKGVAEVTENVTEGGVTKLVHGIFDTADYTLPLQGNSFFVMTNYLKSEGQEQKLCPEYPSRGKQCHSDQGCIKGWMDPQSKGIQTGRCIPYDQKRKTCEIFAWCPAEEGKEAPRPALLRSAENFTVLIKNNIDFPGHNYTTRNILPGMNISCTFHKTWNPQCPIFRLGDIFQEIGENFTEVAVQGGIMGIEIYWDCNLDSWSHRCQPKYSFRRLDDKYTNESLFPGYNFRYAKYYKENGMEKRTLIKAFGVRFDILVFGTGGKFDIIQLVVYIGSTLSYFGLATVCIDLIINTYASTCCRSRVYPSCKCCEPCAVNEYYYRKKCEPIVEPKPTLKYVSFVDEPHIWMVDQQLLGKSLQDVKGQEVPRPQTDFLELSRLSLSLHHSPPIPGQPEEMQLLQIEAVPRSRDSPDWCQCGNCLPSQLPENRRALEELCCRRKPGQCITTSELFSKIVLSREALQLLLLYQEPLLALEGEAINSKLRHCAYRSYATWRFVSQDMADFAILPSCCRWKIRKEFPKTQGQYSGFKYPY

Molecule	tested on	test	system	setting	how to read	quantity	result
GRKKRRQRRRPQ		fear memory recall	peptide, mouse	retro-orbital, dose not given		effective concentration	≥ 10 mM
insulin degludec		euglycemic clamp	healthy human volunteers, C-peptide reduction at least 50%, serum	subcutaneous, 0.4 IU/kg	relative to: baseline	C-peptide reduction	63.2 ± 9.47%
liraglutide			Wistar rat, female, diet-induced obese	dose not given, baseline before treatment		body weight	566 ± 46 g
ESGRRVLVYSCRHGYELQG		Luminex, refers to: IFN-γ	peptide, NOD-DR3 mice, peptide-immunized, splenocytes	dose not given, 48 h		interferon gamma secretion	> 1000 pg/mL
Pam2CSK4			APP/PS1 mouse, cortex	local injection, dose not given, unit not given	relative to: injected over adjacent side	GFAP level	0.512 and 1.23 and 0.869
maraviroc		ELISA, refers to: sRAGE	mouse, HIV-infected, serum	intraperitoneal, 120 mg/kg twice daily, week 3 post infection	relative to: HIV-infected untreated	fold change	3.13 fold
B1 (human hnRNP R)	PP6C (human)	co-immunoprecipitation, IP-MS	CYB5R4 knockout cells	concentration not given	relative to: CYB5R4 knockout over parental	log2 fold change	-1.12
B2 (interferon gamma)		proteinuria inducer	FVB mice	dose not given, 0 to 72 h		urine albumin/creatinine ratio AUC	481 and 625 and 472 and 292 and 1910 and 348 and 533
heparin sodium			human	intravenous infusion, 8 IU/kg/h, day 1 to 6	relative to: baseline	Emax of ACT ratio	1.06
caspofungin			adult ICU patients, mITT, serum	dose not given, Follow-up		aspartate aminotransferase	20.8 U/L
icatibant		paw oedema	mouse	intraperitoneal, 1 mg/kg, first hour, together with: bradykinin		inhibition	65.5 ± 3.61%
cotadutide		metabolomics, refers to: hepatic serine	ob/ob mice on AMLN diet, NASH model, liver	dose not given		metabolite level	1.04 ± 0.05 scaled intensity
difelikefalin			Japanese haemodialysis patients with pruritus	intravenous, 1.0 µg/kg, 8 weeks		PGIC much worse	1.7%
REGYEMVFDGKPQHTNVCF		Luminex, refers to: IFN-γ	peptide, NOD-DR3 mice, peptide-immunized, splenocytes	dose not given, 48 h		interferon gamma secretion	> 1000 pg/mL
11-deoxycorticosterone	CYP11B2 (human)	substrate binding, stopped-flow global kinetic fitting	purified enzyme	3-state induced fit model, together with: 40-fold excess adrenodoxin		rate constant k-1	36.7 ± 2.13 s⁻¹
B3 (recombinant human GDNF)		CNN cell counting, refers to: tyrosine hydroxylase	rat, 6-OHDA lesion model, substantia nigra pars compacta	3 µg/24 h	relative to: lesioned over intact side	TH-immunoreactive cell ratio	30.5 ± 5.1%
colistin	Salmonella enterica Infantis	broth microdilution	clinical isolate RKI 277/14			MIC	≤ 0.5 µg/mL
GWTLNSAGYLLGPHAVGNHRSFSDKNGLTS-NH2 (C-amide)		RT-qPCR, refers to: Tjp1	peptide, mouse, DSS-induced colitis, colon	ip, 3 µM, 3% DSS, unit not given	relative to: Gapdh	mRNA level	6.04 and 5.66 and 4.38 and 5.22
KCNTATCATQRLANFLVHSSNNFGPILPPTNVGSNTY (Pramlintide; sequence looked up)		Y maze	peptide, Tg2576 mouse	intraperitoneal, dose not given, 10 weeks daily		spontaneous alternation	64 ± 1.34%
BzATP	P2X purinoceptor 7 (P2rx7, Rattus norvegicus, UniProt Q64663, I214A/Q143A)	ion current, agonist, two-electrode voltage clamp	Xenopus oocytes	3.7 µM		normalized current	0 and 0.01
semaglutide			DIO male Wistar rats	dose not given, 7 weeks		body weight	604 ± 22 g
B4 (palladin, human)	CYB5R4 knockout human cells	PP6 interaction, 3xFLAG-PP6C IP-MS		concentration not given	relative to: CYB5R4 KO over parental	log2 fold change	-0.95
FGA (Homo sapiens, UniProt P02671)	AUTS2 (Homo sapiens, UniProt Q8WXX7)	cross-linking MS		together with: DSSO		cross-linked residues	K100 to K167

Some of these lines once more:
Molecule	tested on	test	system	setting	how to read	quantity	result
11-deoxycorticosterone	CYP11B2 (human)	substrate binding, stopped-flow global kinetic fitting	purified enzyme	3-state induced fit model, together with: 40-fold excess adrenodoxin		rate constant k-1	36.7 ± 2.13 s⁻¹
B3 (recombinant human GDNF)		CNN cell counting, refers to: tyrosine hydroxylase	rat, 6-OHDA lesion model, substantia nigra pars compacta	3 µg/24 h	relative to: lesioned over intact side	TH-immunoreactive cell ratio	30.5 ± 5.1%
